Published values collected from several papers.
Parts stem from different laboratories: compare values within a part only. Positions count from the first letter of the parent shown.

Block 1
Target: Ras GTPase-activating protein-binding protein 1, full length (G3BP1, Homo sapiens, UniProt Q13283)
UniProt Q13283, sequence (whole entry, looked up): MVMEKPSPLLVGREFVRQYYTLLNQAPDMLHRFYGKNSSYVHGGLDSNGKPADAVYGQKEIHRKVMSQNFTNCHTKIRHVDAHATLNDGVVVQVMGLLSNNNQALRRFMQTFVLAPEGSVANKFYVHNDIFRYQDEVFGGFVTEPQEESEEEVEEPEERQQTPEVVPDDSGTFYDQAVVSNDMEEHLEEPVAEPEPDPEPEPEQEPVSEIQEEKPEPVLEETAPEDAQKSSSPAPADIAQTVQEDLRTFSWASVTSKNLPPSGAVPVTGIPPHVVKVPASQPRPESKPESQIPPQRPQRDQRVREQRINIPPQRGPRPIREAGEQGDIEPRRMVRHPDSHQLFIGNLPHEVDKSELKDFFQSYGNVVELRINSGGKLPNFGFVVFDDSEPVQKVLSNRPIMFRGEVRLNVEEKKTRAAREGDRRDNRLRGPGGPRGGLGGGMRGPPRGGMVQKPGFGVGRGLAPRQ
Technique: RNA Bind-n-Seq
Form: RNA
Matrix: in vitro
Tested at: 200 nM
Setting: whole 134-nt RNA, ends assumed
Together with: 150 mM LiCl
Reference: input library
Reading: higher = stronger binding
Quantity: log2 enrichment
Library: 7-deaza-guanosine replaces G
Constant ends, left off below: GGGAGUUCUACAGUCCGACGAUC … UGGAAUUCUCGGGUGUCAAGG
Oligonucleotide = UCAAGUCCUGUGCUACACAUCGUAUGUACCGAAUCGGGGAAGGAAGGGGAAGGGGAAAGUAUUAUGUUACGCCGUUCGGAUCUGCACUUC; result = -0.0164
Oligonucleotide = UCCUCAAGUCCUGUGCUACACAUCGUAUGUACCGAAUCGGCGGGCGGGGCGGAAAGUAUUAUGUUACGCCGUUCGGAUCUGCACUUCCAG; result = 0.989
Oligonucleotide = AAGUCCUGUGCUACACAUCGUAUGUACCGAAUCGGUUUUGGGGUUUUGGUUUUGGGAAAGUAUUAUGUUACGCCGUUCGGAUCUGCACUU; result = -0.765
Oligonucleotide = AAGUCCUGUGCUACACAUCGUAUGUACCGAAUCGGAAAAAGGGAAAAAGGAAAAAGGAAAGUAUUAUGUUACGCCGUUCGGAUCUGCACU; result = -0.511
Oligonucleotide = GCAGGAAGUAAAAACAAAUGGAAAUGCUUCGGAUAGAGGCAGGGGUGGGGGUUGCUAAGGAAAGGGUGGGAUGGGAGUGGGUAAAGAGUU; result = 0.271
Oligonucleotide = ACCAUGCAGGUGGGCAGCUUUGGGAAGUGGGGCAAGGGGGGGAUAGGGAGGGGGGUAACACUUUGGGAACAGGUGGUCCCAGGUCGUUUC; result = 0.0646
Oligonucleotide = UUUAAGAGCAGCCAGGGAGAUAGUGGCGUUGACUUGAGUGCCGAGUCUCGGGAGUCGUCUGCGACCUCCUCGCAGCGCAGCUCCCCAUAU; result = 1.42
Oligonucleotide = GCAGGAAGUAAAAACAAAUGGAAAUGCUUCGGAUAGUGGCAGGGGUGGGGGUUUCUAAGGAAAGGGUGGGAUGGGAGUGGGUAAAGAGUU; result = 0.16
Oligonucleotide = CCUGUGCUACACAUCGUAUGUACCGAAUCGGGUUUUUUUGGUUUUUUUGGUUUUUUUGGGGAAAGUAUUAUGUUACGCCGUUCGGAUCUG; result = 0.192
Oligonucleotide = UCCUGUGCUACACAUCGUAUGUACCGAAUCGGGAAAAAGGGGAAAAAGGGGAAAAAGGGAAAGUAUUAUGUUACGCCGUUCGGAUCUGCA; result = -0.158

Block 2
Target: Histone acetyltransferase KAT6A, both winged helices, GST fusion (KAT6A, Homo sapiens, UniProt Q92794, residues 1-181)
Technique: protein binding microarray
Form: double-stranded DNA, one strand shown
Matrix: in vitro
Tested at: not given
Setting: 8-mer, flanks averaged, mean of 2 arrays, mostly near background
Reference: not given
Reading: higher = stronger binding
Quantity: E-score
Residues (chain): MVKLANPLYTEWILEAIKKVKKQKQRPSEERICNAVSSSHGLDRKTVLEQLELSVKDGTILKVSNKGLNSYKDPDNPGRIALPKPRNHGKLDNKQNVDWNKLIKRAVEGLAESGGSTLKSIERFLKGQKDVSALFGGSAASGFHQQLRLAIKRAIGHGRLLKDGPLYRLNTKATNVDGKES
Oligonucleotide = TCTCCTAA; result = -0.296
Oligonucleotide = ACAGCAAT; result = -0.0657
Oligonucleotide = ACCGCGCA; result = 0.318
Oligonucleotide = CAGCTTGA; result = -0.0699
Oligonucleotide = CACTCCCA; result = -0.15
Oligonucleotide = AAAAGAGA; result = -0.139
Oligonucleotide = ACTTCACC; result = 0.0948
Oligonucleotide = GAGCACCA; result = -0.171
Oligonucleotide = ATGGCGCG; result = 0.227
Oligonucleotide = CGAAATCG; result = 0.227
Oligonucleotide = TCGAAACA; result = -0.0287
Oligonucleotide = ACTTAAGT; result = -0.0995
Oligonucleotide = GATCATAC; result = 0.0718
Oligonucleotide = AAAGCCAC; result = -0.206
Oligonucleotide = CAAGATAC; result = -0.0301
Oligonucleotide = GATCGAAA; result = 0.0947
Oligonucleotide = AACGTCTC; result = -0.113
Oligonucleotide = AGGTACTA; result = -0.181
Oligonucleotide = CGAGCATC; result = -0.0292
Oligonucleotide = CTTCAGCA; result = -0.213
Oligonucleotide = ACGACGTG; result = -0.0057
Oligonucleotide = GGATTAGA; result = -0.0813

Block 3
Target: UBE2E3 UBC core domain (UniProt Q969T4)
UniProt Q969T4, sequence (whole entry, looked up): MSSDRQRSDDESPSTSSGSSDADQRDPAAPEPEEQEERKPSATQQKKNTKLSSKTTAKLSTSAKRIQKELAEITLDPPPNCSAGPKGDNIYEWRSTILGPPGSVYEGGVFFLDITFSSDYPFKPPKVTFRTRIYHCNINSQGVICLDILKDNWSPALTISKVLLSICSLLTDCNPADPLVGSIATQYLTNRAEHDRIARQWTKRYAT
Technique: yeast two-hybrid
Matrix: yeast
Setting: mostly zero background
Reference: not given
Reading: higher = stronger interaction
Quantity: lacZ reporter activity
B1: RNF149 RING domain (UniProt Q8NC42); chain EKGIDVDAENCAVCIENFKVKDIIRILPCKHIFHRICIDPWLLDHRTCPMCKLDVIKALGYW
B2: TRIM52 RING domain (UniProt Q96A61); chain PMQTLQEEAVCAICLDYFKDPVSISCGHNFCRGCVTQLWSKEDEEDQNEEEDEWEEEEDEEAV
B3: PEX2 RING domain (UniProt P28328); chain DNTLATSGKECALCGEWPTMPHTIGCEHIFCYFCAKSSFLFDVYFTCPKCGTEVHSLQPLK
B4: TRIM15 RING domain (UniProt Q9C019); chain SLKVVHELPACTLCAGPLEDAVTIPCGHTFCRLCLPALSQMGAQSSGKILLCPLCQEEEQAETPMA
B5: RNF43 RING domain (UniProt Q68DV7); chain SGSSCSSAPVCAICLEEFSEGQELRVISCLHEFHRNCVDPWLHQHRTCPLCMFNITEGDSFS
B6: RNF4 RING domain (UniProt P78317); chain TGLRPSGTVSCPICMDGYSEIVQNGRLIVSTECGHVFCSQCLRDSLKNANTCPTCRKKINHKRYHP
B7: TRIM10 RING domain (UniProt Q9UDY6); chain SVTSLADEVNCPICQGTLREPVTIDCGHNFCRACLTRYCEIPGPDLEESPTCPLCKEPFRPGSFRP
B8: MSL2 RING domain (UniProt Q9HCI7); chain LLPYFRQSLSCCVCGHLLQDPIAPTNSTCQHYVCKTCKGKKMMMKPSCSWCKDYEQFEENKQ
B9: TRIM55 RING domain (UniProt Q9BYV6); chain TMDNLEKQLICPICLEMFTKPVVILPCQHNLCRKCASDIFQASNPYLPTRGGTTMASGGRFRCPSCRHEVVLDRHG
B10: RNF32 RING domain (UniProt Q9H0A6); chain SLLQGDSVQPCPICKEEFELRPQVLLSCSHVFHKACLQAFEKFTNKKTCPLCRKNQYQTRVIH
B11: TRIM3 RING domain (UniProt O75382); chain VQPMDKQFLVCSICLDRYQCPKVLPCLHTFCERCLQNYIPAQSLTLSCPVCRQTSILPEQGV
B12: RNF112 RING domain (UniProt Q9ULX5); chain QPMAPRELPTCSICLERLRDPISLDCGHDFCIRCFSTHRLPGCEPPCCPECRKICKQKRGLR
Molecule = B1 (RNF149 RING domain); result = 0
Molecule = FLKKLEQSFMCVCCQELVYQPVTTECFHNVCKDCLQRSFKAQVFSCPACRHDLGQNYIMI (UHRF2 RING domain (UniProt Q96PU4)); result = 0
Molecule = B2 (TRIM52 RING domain); result = 0
Molecule = B3 (PEX2 RING domain); result = 0
Molecule = B4 (TRIM15 RING domain); result = 0
Molecule = MANWVFCNRCFQPPHRTSCFSLTNCGHVYCDACLGKGKKNECLICKAPCRTVLLSK (RNF212 RING domain (UniProt Q495C1)); result = 0
Molecule = B5 (RNF43 RING domain); result = 2790
Molecule = B6 (RNF4 RING domain); result = 2950
Molecule = B7 (TRIM10 RING domain); result = 0
Molecule = B8 (MSL2 RING domain); result = 0
Molecule = B9 (TRIM55 RING domain); result = 0
Molecule = B10 (RNF32 RING domain); result = 0
Molecule = B11 (TRIM3 RING domain); result = 0
Molecule = B12 (RNF112 RING domain); result = 0

Block 4
Target: CCND2, cyclin fold, Cln2 fusion (human)
Technique: yeast growth competition, sequencing
Matrix: yeast
Setting: strong parent motif
Reference: not given
Reading: higher = stronger binding
Quantity: normalised enrichment score
Starting sequence: E2F1 docking peptide (human); PPVKRRLDFETDH; partner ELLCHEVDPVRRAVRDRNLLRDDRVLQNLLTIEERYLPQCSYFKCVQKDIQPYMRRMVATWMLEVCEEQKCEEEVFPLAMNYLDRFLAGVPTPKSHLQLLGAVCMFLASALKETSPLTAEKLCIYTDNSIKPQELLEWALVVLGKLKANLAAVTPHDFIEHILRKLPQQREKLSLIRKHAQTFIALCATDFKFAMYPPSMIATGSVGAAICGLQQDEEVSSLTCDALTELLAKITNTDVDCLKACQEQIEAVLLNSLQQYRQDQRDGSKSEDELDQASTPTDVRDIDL
Variant = PPVKRRLDFETKH [D12K]; result = 1.3
Variant = PPVKRALDFETDH [R6A]; result = 0.997
Variant = PPVKRRLDFETSH [D12S]; result = 1.73
Variant = PPVKRRLDCETDH [F9C]; result = 0.138
Variant = PPVTRRLDFETDH [K4T]; result = 0.78
Variant = PPVKRRLCFETDH [D8C]; result = 2.16
Variant = PPVKRRLDNETDH [F9N]; result = 0.165
Variant = PWVKRRLDFETDH [P2W]; result = 0.67
Variant = PPVKRRLKFETDH [D8K]; result = 1.03
Variant = PPVKFRLDFETDH [R5F]; result = 0.455
Variant = PPVNRRLDFETDH [K4N]; result = 1.26
Variant = PPVWRRLDFETDH [K4W]; result = 0.463
Variant = PPVKRPLDFETDH [R6P]; result = -0.204

Excerpt of the above (block 1):
Oligonucleotide = AAGUCCUGUGCUACACAUCGUAUGUACCGAAUCGGAAAAAGGGAAAAAGGAAAAAGGAAAGUAUUAUGUUACGCCGUUCGGAUCUGCACU; result = -0.511
Oligonucleotide = GCAGGAAGUAAAAACAAAUGGAAAUGCUUCGGAUAGAGGCAGGGGUGGGGGUUGCUAAGGAAAGGGUGGGAUGGGAGUGGGUAAAGAGUU; result = 0.271
Oligonucleotide = ACCAUGCAGGUGGGCAGCUUUGGGAAGUGGGGCAAGGGGGGGAUAGGGAGGGGGGUAACACUUUGGGAACAGGUGGUCCCAGGUCGUUUC; result = 0.0646
Oligonucleotide = UUUAAGAGCAGCCAGGGAGAUAGUGGCGUUGACUUGAGUGCCGAGUCUCGGGAGUCGUCUGCGACCUCCUCGCAGCGCAGCUCCCCAUAU; result = 1.42
